# Results from different studies.
# “And” joins repeats or separate records; there may be more than shown. Numbers after ± are the reported error.
Structure (SMILES),test,test system,setting,how to read,measurement,value
C=C(CN(C(=O)c1c(C(F)F)nn(C)c1F)C1CC1)c1ccc(Cl)cc1Cl,static acute toxicity test,zebrafish (Brachydanio rerio),"0.694 mg a.i./L, 72 h",,mortality,0%
N[C@@H]1c2ccccc2OC12CCN(c1cnc3c(N4CCCc5ncccc54)n[nH]c3n1)CC2,,patients advanced metastatic solid tumours,"oral, 60 mg once daily, RP2D expansion phase",,incidence grade ≥3 TEAE,60%
CCC[C@H]1CC[C@H](c2ccc(-c3ccc(F)cc3)cc2)CC1,measured: compound,"human pregnant women, female fetuses, maternal serum","dose not given, paired maternal-cord samples, mean",,concentration,0.95 ng/mL
CN1CC[C@@H](c2c(O)cc(O)c3c(=O)cc(-c4ccc(C(F)(F)F)cc4Cl)oc23)[C@@H]1CO,measured: respiratory failure,B-cell malignancies or AML,"oral, 100 mg, grade 3 to 4, continuous dosing",,patients with adverse event,12.5%
CC(C)C[C@@H]1NC(=O)CNC(=O)[C@H](CC(N)=O)NC(=O)[C@H](CCCNC(=N)N)NC(=O)[C@H]([C@@H](C)O)NC(=O)[C@@H]2CSSC[C@@H]3NC(=O)[C@H]([C@@H](C)O)NC(=O)CNC(=O)CNC(=O)[C@H](C(C)C)NC(=O)[C@@H]4CSSC[C@H](NC(=O)[C@H]([C@@H](C)O)NC(=O)[C@H](CSSC[C@H](NC(=O)[C@H](C(C)C)NC(=O)[C@@H]5CCCN5C1=O)C(=O)NCC(=O)N[C@@H](CCC(=O)O)C(=O)N[C@@H]([C@@H](C)O)C(=O)N4)NC(=O)CNC(=O)[C@H](CCCCN)NC(=O)[C@H]([C@@H](C)O)NC(=O)[C@H](CC(N)=O)NC3=O)C(=O)N[C@@H](CO)C(=O)N[C@@H](Cc1c[nH]c3ccccc13)C(=O)N1CCC[C@H]1C(=O)N[C@@H](C(C)C)C(=O)N2,HPLC,ammonium bicarbonate 0.1 M,"180 µM, 14 days, pH 9.0, 37 °C, deamidation stability",,remaining peptide,59.6 ± 1.7%
O=S(=O)(Nc1ccccc1)c1ccc(NC(=S)Nc2ccccc2)cc1,measured: CREA,"male mouse, blood","oral, 5 mg/kg daily, 14 days",,blood chemistry level,0.2 mg/dL
COc1ccc(C[C@@H]2NC(=O)[C@H]([C@@H](C)O)NC(=O)[C@@H]3[C@@H]4CCN3C(=O)[C@@H]3Cc5cn(c6ccc(F)cc56)CCCCCCN(Cc5ccc(cc5)CCNC(=O)[C@]5(C)CCCN5C2=O)C(=O)CCC(=O)N[C@@H](C)C(=O)N[C@H](CNC(=O)CCCCC[N+](C)(C)C)C(=O)N[C@@H](Cc2cccc(c2)CNC(=O)CO4)C(=O)N3)cc1,measured: Asthenia,humans,"concentration not given, Study-001",,participants with adverse event,2%
C[C@H]1COCCN1c1nc(NCc2cccnc2C(F)(F)F)c2cccnc2n1,,conscious rat,"intravenous, 10 mg/kg",baseline: control,BP change,-15.6%
C[C@@H](O)[C@@H]1NC(=O)[C@H](CCCCN)NC(=O)[C@@H](Cc2c[nH]c3ccccc23)NC(=O)[C@H](Cc2ccccc2)NC(=O)[C@@H](NC(=O)[C@H](N)Cc2ccccc2)CSSC[C@@H](C(=O)N[C@H](CO)[C@@H](C)O)NC1=O,population PK model,"human, typical 75 kg","dose not given, weight exponent 1 fixed",,volume of distribution,5.98 L
O=C(O)CCCOc1ccc(F)cc1-c1cc(-c2ccccc2C(F)(F)F)n(-c2ccccc2)n1,measured: Fbg,"Crl:CD(SD) rats, female, blood","iv, 25 µg/kg, 14 days",,blood chemistry,197 mg/dL
Clc1ccc(-c2cc(Cl)c(Cl)cc2Cl)cc1Cl,,polyethylene-water partitioning,PCB compilation,baseline: maximum over minimum K,literature range factor,3
CC(=O)c1c(C)c2cnc(Nc3ccc(C4CCN(CCS(C)(=O)=O)CC4)cn3)nc2n(C2CCCC2)c1=O,,"human, plasma","oral, 100 mg, day 1 single dose",,elimination rate constant,3.33e-05 s⁻¹
COc1cccc2c1CCCC2CCCN1CCN(C2CCCCC2)CC1 (stereo not shown),,"CD-1 mouse, male, plasma","intraperitoneal, 30 mg/kg",,AUC(0-t),698 ng·h/mL
COc1ncccc1-c1cnn2ccc(N3CCN(C(=O)OC(C)C)CC3)nc12,,"mouse nerve ligation model, plasma","oral, 30 mg/kg, 120 min after last dose, repeat dosing day 1",,drug concentration,6 µM
COc1cc2c(Oc3ccc4[nH]c(C)cc4c3F)ccnc2cc1OCC1(N)CC1,,paediatric recurrent refractory sarcoma,"concentration not given, whole group",,grade 3 Neutropenia,5.9%
Clc1ccc(Cl)c(-c2cc(Cl)c(Cl)cc2Cl)c1,,fresh water,"20 °C, S30-1 sampler, 30 µm",,log K(PDMS-water),5.98 ± 0.04
O=C1Nc2cc3[nH]nc(-c4ccncc4)c3cc2CN1Cc1ccccc1,CTCAE v4.03,advanced solid tumour patients,"intravenous, 4.8 mg/kg, schedules 1/2",,patients with cough,0%
CCN(CCO)CCCC(C)Nc1ccnc2cc(Cl)ccc12 (stereo not shown),,newly diagnosed glioblastoma patients,"oral, 200 mg/dose, grade 2, together with: radiotherapy and temozolomide",,anemia patients,33%
CN1CCN(c2ccc(Nc3nccc(-c4cccnc4)n3)cc2C(F)(F)F)CC1,,zebrafish embryos,"50 µM, 5 d",,toxicity,4.9 ± 4.9%
NC(=O)[C@H]1CCN(c2ncnc(N)c2F)C[C@@H]1N1CCC[C@@H](Nc2cc(Cl)cc(C(F)(F)F)c2)C1=O,,B-cell malignancy patients,"oral, 328 mg twice daily, dose",,grade ≥3 platelet decrease,0%
Clc1cc(Cl)c(-c2ccc(Cl)c(Cl)c2Cl)cc1Cl,,fresh water,"20 °C, S100 sampler, 100 µm",,log K(PDMS-water),6.4 ± 0.05
C[C@@H](NC(=O)N1C(=O)[C@H](Cc2ccnc(N)c2)[C@H]1C(=O)O)C1CCCCC1,,healthy adult Chinese volunteers,"continuous intravenous infusion, 1.5 mg/kg/h, 5-day infusion, CTCAE 5.0 grading",,incidence of urine leukocyte esterase positive,0%
CC(C)(O)c1cc(Nc2cc(Oc3cn(C4CC4)nc3C3CCOCC3)ccn2)ccn1,measured: Nausea,Japanese patients with advanced cancer,"oral, dose not given, any grade",,treatment-emergent adverse events,44%
CC[C@H](C)[C@H](NC(=O)[C@H](Cc1ccccc1)NC(=O)[C@H](CCC(=O)O)NC(=O)[C@H](CCCNC(=N)N)NC(=O)[C@H](C)NC(=O)[C@H](C)NC(=O)[C@H](CCC(N)=O)NC(=O)[C@H](CCC(=O)O)NC(=O)[C@H](CCC(=O)O)NC(=O)[C@H](CC(C)C)NC(=O)[C@H](Cc1ccc(O)cc1)NC(=O)[C@H](CO)NC(=O)[C@H](CO)NC(=O)[C@@H](NC(=O)[C@H](CC(=O)O)NC(=O)[C@H](CO)NC(=O)[C@@H](NC(=O)[C@H](Cc1ccccc1)NC(=O)[C@@H](NC(=O)CNC(=O)[C@H](CCC(=O)O)NC(=O)[C@H](C)NC(=O)CCc1cnc[nH]1)[C@@H](C)O)[C@@H](C)O)C(C)C)C(=O)N[C@@H](C)C(=O)N[C@@H](Cc1c[nH]c2ccccc12)C(=O)N[C@@H](CC(C)C)C(=O)N[C@H](C(=O)N[C@@H](CCCNC(=N)N)C(=O)NCC(=O)N[C@@H](CCCNC(=N)N)C(=O)N[C@@H](CCCCNC(=O)COCCOCCNC(=O)COCCOCCNC(=O)CC[C@H](NC(=O)CCCCCCCCCCCCCCCCC(=O)O)C(=O)O)C(=O)NCC(=O)NCC(=O)N[C@@H](CO)C(=O)N[C@@H](CCCCNC(=O)[C@H](CCCCNC(=O)[C@H](CCCCNc1c(NCCCCCN(O)C(=O)CCC(=O)NCCCCCN(O)C(=O)CCC(=O)NCCCCCN(O)C(C)=O)c(=O)c1=O)Nc1c(NCCCCCN(O)C(=O)CCC(=O)NCCCCCN(O)C(=O)CCC(=O)NCCCCCN(O)C(C)=O)c(=O)c1=O)NC(=O)[C@H](CCCCNc1c(NCCCCCN(O)C(=O)CCC(=O)NCCCCCN(O)C(=O)CCC(=O)NCCCCCN(O)C(C)=O)c(=O)c1=O)Nc1c(NCCCCCN(O)C(=O)CCC(=O)NCCCCCN(O)C(=O)CCC(=O)NCCCCCN(O)C(C)=O)c(=O)c1=O)C(=O)O)C(C)C [zirconium-89 labelled],ex vivo gamma counting,"male Sprague-Dawley rat, femur","intravenous, 1 nmol, 24 h",,tissue uptake,0.352 %ID/g
CC(C)c1nc(N(C)S(C)(=O)=O)nc(-c2ccc(F)cc2)c1/C=C/[C@@H](O)C[C@@H](O)CC(=O)O,,healthy human subjects,"oral, dose not given, study CL-0537 safety set",,incidence of Fatigue,3.6%
Clc1ccc(Cl)c(-c2cc(Cl)ccc2Cl)c1,,polyethylene-water partitioning,PCB compilation,baseline: maximum over minimum K,literature range factor,1.4
CC(C)C[C@@H]1NC(=O)CNC(=O)[C@H](CC(N)=O)NC(=O)[C@H](CCCNC(=N)N)NC(=O)[C@H]([C@@H](C)O)NC(=O)[C@@H]2CSSC[C@@H]3NC(=O)[C@H]([C@@H](C)O)NC(=O)CNC(=O)CNC(=O)[C@H](C(C)C)NC(=O)[C@@H]4CSSC[C@H](NC(=O)[C@H]([C@@H](C)O)NC(=O)[C@H](CSSC[C@H](NC(=O)[C@H](C(C)C)NC(=O)[C@@H]5CCCN5C1=O)C(=O)NCC(=O)N[C@@H](CCC(=O)O)C(=O)N[C@@H]([C@@H](C)O)C(=O)N4)NC(=O)CNC(=O)[C@@H]1CCCN1C(=O)[C@H]([C@@H](C)O)NC(=O)[C@H](CC(N)=O)NC3=O)C(=O)N[C@@H](CO)C(=O)N[C@@H](CCCCN)C(=O)N1CCC[C@H]1C(=O)N[C@@H](C(C)C)C(=O)N2,HPLC,ammonium bicarbonate 0.1 M,"180 µM, 7 days, pH 9.0, 37 °C, deamidation stability",,remaining peptide,75.4 ± 1.7%
CC(C)[C@H](C(=O)O[C@H](C#N)c1cccc(Oc2ccccc2)c1)c1ccc(Cl)cc1,measured: CYP2B6,"human, age 1 year",,,enzyme contribution to clearance,0.7%
N=C(N)NCCNC(=O)C1(Nc2ccccc2)CCN(Cc2ccccc2)CC1,,"Sprague-Dawley rat, male, urine","oral, 50 mg/kg, time not given",,unchanged urinary recovery,0.2%
COc1cc2c(cc1OC)CN(CCc1ccc(NC(=O)c3cccc4c(=O)c5cccc(OC)c5[nH]c34)cc1)CC2,,"CD-1 mouse, male, lung","intraperitoneal, 30 mg/kg",,Tmax,2 h
N.N.O=C([O-])C1(C(=O)[O-])CCC1.[Pt+2],"ICP-MS platinum, measured: platinum","human patients, plasma","dose not given, carboplatin target AUC 3, cycle 1 day 1",,AUC(0-48 h),95200 ng·h/mL
COc1cccc(Oc2ccccc2NC(=O)CNC(=O)c2cccc3ccccc23)c1,,"esterase-deficient SCID mice, male","oral, 100 mg/kg/day, 14 days, toxicity study",,serum phosphorus,12.6 mg/dL and 10.9 mg/dL and 10.8 mg/dL
COc1cc2c(Nc3ccc(Cl)c(Cl)c3F)ncnc2cc1OC[C@@H]1C[C@@H]2CN(C)C[C@@H]2C1,,mouse,daily dosing,,MTD,60 mg/kg
CCC[C@@](N)(CO)CCc1ccc(OCCCCCC(C)C)cc1,,dog,"oral, 10 mg/kg",,Tmax,6 h
O=C(O)[C@H]1O[C@@H](Oc2cc3oc(-c4ccccc4)cc(=O)c3c(O)c2O)[C@H](O)[C@@H](O)[C@@H]1O,,"Sprague Dawley rat, plasma","oral, 10 g lyophilized powder/kg, high dose",,Vz/F,5470 ± 1940 L/kg
CO[C@H]1C[C@@H]2CC[C@@H](C)[C@@](O)(O2)C(=O)C(=O)N2CCCC[C@H]2C(=O)O[C@H]([C@H](C)C[C@@H]2CC[C@@H](OC(=O)NCCOCCOCCOCCOCCOCCOCCOCCOCCC(=O)N3CCc4cc(Cn5nc(-c6ccc7oc(N)nc7c6)c6c(N)ncnc65)ccc4C3)[C@H](OC)C2)C[C@@H](O)[C@H](C)/C=C(\C)[C@@H](O)[C@@H](OC)C(=O)[C@H](C)C[C@H](C)/C=C/C=C/C=C/1C,,patients with advanced solid tumours,"intravenous, 12 mg weekly, any grade",,dyspnoea incidence,25%
C[C@]1(CO)Cc2ncn(-c3ccc(C#N)c(Cl)c3)c2C(=O)O1,,"healthy Japanese adults, plasma",80 mg single dose,,AUC(0-inf),22 µM·h
CCOc1cc(Oc2ccc(C(F)(F)F)cc2Cl)ccc1[N+](=O)[O-],,"rat, female","125 mg/kg, 4 days",,final body weight,95.6 ± 3.3 g
CC(C)[C@@H]1CC[C@@H](C)C[C@@H]1O,acute oral toxicity OECD,"Swiss albino mice, serum","oral, 1000 mg/kg",,creatinine,0.98 ± 0.05 mg/dL
CCS(=O)(=O)Nc1ccc(Oc2ccc(F)cc2F)c(-c2cn(C)c(=O)c3[nH]ccc23)c1,fungal infection leading to discontinuation,"human, relapsed/refractory AML","oral, dose not given",,treatment-emergent adverse events,0%

# Excerpt of the above:
Structure (SMILES),test,test system,setting,how to read,measurement,value
CO[C@H]1C[C@@H]2CC[C@@H](C)[C@@](O)(O2)C(=O)C(=O)N2CCCC[C@H]2C(=O)O[C@H]([C@H](C)C[C@@H]2CC[C@@H](OC(=O)NCCOCCOCCOCCOCCOCCOCCOCCOCCC(=O)N3CCc4cc(Cn5nc(-c6ccc7oc(N)nc7c6)c6c(N)ncnc65)ccc4C3)[C@H](OC)C2)C[C@@H](O)[C@H](C)/C=C(\C)[C@@H](O)[C@@H](OC)C(=O)[C@H](C)C[C@H](C)/C=C/C=C/C=C/1C,,patients with advanced solid tumours,"intravenous, 12 mg weekly, any grade",,dyspnoea incidence,25%
CCS(=O)(=O)Nc1ccc(Oc2ccc(F)cc2F)c(-c2cn(C)c(=O)c3[nH]ccc23)c1,fungal infection leading to discontinuation,"human, relapsed/refractory AML","oral, dose not given",,treatment-emergent adverse events,0%
O=S(=O)(Nc1ccccc1)c1ccc(NC(=S)Nc2ccccc2)cc1,measured: CREA,"male mouse, blood","oral, 5 mg/kg daily, 14 days",,blood chemistry level,0.2 mg/dL
C[C@]1(CO)Cc2ncn(-c3ccc(C#N)c(Cl)c3)c2C(=O)O1,,"healthy Japanese adults, plasma",80 mg single dose,,AUC(0-inf),22 µM·h
N=C(N)NCCNC(=O)C1(Nc2ccccc2)CCN(Cc2ccccc2)CC1,,"Sprague-Dawley rat, male, urine","oral, 50 mg/kg, time not given",,unchanged urinary recovery,0.2%
CCC[C@H]1CC[C@H](c2ccc(-c3ccc(F)cc3)cc2)CC1,measured: compound,"human pregnant women, female fetuses, maternal serum","dose not given, paired maternal-cord samples, mean",,concentration,0.95 ng/mL
